Measured values collected from several papers.
Numbered parts are unrelated; each lists some results of a single study.

Sample 1 — technique: protein-binding microarray; form: double-stranded DNA, one strand shown; sample: in vitro; tested at: 2540 nM top; setting: 60-bp whole probe; together with: salmon DNA 0.4 mg/ml; baseline: random background probes; reading: higher = stronger binding; shared flanks, not repeated: GCCTAGCAC … GTCTTGATTCGCTTGACGCTGCTG
Target: Interferon regulatory factor 3, full length, phosphomimetic (IRF3, Homo sapiens, UniProt Q14653, residues 1-427, S386D/S396D/S398D/S402D/T404D/S405D)
Chain of UniProt Q14653 (whole entry, unmodified, looked up): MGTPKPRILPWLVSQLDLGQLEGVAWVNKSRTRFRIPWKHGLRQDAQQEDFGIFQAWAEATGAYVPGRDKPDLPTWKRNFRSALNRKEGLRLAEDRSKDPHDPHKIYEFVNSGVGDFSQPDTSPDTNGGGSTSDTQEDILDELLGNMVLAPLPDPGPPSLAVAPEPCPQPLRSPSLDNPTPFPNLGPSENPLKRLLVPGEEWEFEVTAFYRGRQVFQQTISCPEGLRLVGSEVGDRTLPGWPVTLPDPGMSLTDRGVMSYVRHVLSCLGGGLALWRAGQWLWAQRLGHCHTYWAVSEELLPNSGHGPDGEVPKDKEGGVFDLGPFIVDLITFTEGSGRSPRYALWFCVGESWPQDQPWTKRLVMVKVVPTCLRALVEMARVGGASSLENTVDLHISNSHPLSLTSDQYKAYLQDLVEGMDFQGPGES
Oligonucleotide	fitted relative affinity [z-score]
TTAGATATCGAGACTGGATTAGTGCTA	-0.219
TCAATTTTCCAAATGCCACTGTGCTAG	3.21
GACGATTTCAGTAGCGAGACGTGCTAG	0.976
TCATCTTTCTGTTTTCTACTGTGCTAG	3.26
TTAGGTTTCCGTTTCCTTTAGTGCTAG	9.75
TTAGATTTCAGTTCCGATTGGTGCTAG	3.52
TCACATTTTTTTTCATCACTGTGCTAG	0.763
TTAGAACTGAGCATCGATTAGTGCTAG	-0.374
TCAATTCTCACTGCAGCACTGTGCTAG	0.565
TTAGGTTCCGGCTTCGGTTAGTGCTAG	1.84
GACGAACTGAGTTTCTAGACGTGCTAG	0.348
GACTAACTGAGACTGGAGACGTGCTAG	-0.129
TTAGGTCTCGGCCTCGGTTAGTGCTAG	-0.483
GACGGTATCAGTTTCGGGACGTGCTAG	6.37
GACGATTCCAGTTTGGAGACGTGCTAG	1.28
GACGGTCTCGGTTTCGGGACGTGCTAG	4.07
GAGTCTTCTCCTCTAGGTTCGTGCTAG	0.0748
GATGATTTCAGTTTCGAGACGTGCTAG	4.44
GACCGACTGGGGTATCGGGACGTGCTA	-0.127
TTAGGACTCGGGACTGGGTTAGTGCTA	-0.959
TCACTCTTCTGGATCTCACTGTGCTAG	1.04

Sample 2 — technique: RNA Bind-n-Seq; form: RNA; sample: in vitro; tested at: 365 nM; baseline: no-protein control; reading: higher = stronger binding
Target: RNA binding protein fox-1 homolog 2, RRM domain, GST-SBP tag (RBFOX2, Homo sapiens, UniProt O43251-10, residues 100-194)
Setting: natural RNA segment, single round, ends assumed
Target sequence (chain): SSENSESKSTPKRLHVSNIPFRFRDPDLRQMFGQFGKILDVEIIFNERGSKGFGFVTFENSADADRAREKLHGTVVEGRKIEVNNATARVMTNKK
Oligonucleotide	RBNS enrichment (R)
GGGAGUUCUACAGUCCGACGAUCUGUGCAUGCGCAUGUUUAACCACAGGCCAGAGAACUCAAUUCUGAUGUCGUAAGUUCUCUGUAAGUGAAAUGGGGUAGACUGUAUGAUUUUCCUAUUGCCAAAAGAAAGAUGGAAUUCUCGGGUGCCAA	41.8
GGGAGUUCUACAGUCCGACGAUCGUCAAAGACAAGGAAGACCAAACCACACACUGUAAAAGUCCACUGCUCUGUAGUUUAUGCCAAGACCACAAUGACUCUUUACCCCAAGAAAGUCUCUUGACUUAAGUUCUUGGAAUUCUCGGGUGCCAA	0.574
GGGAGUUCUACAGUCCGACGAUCAAUGGGCAGGAGAGAAGGCCUUUAUUUCUCGCCCACCCAUUCCUCCUGUACCAGCACCUCCGUUUUCAGUCAGUGUUGUCCAGCAACGGUACCGUUUACACAGUCACCUCUGGAAUUCUCGGGUGCCAA	0.197
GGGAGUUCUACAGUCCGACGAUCACAAAACACACAAUUUGGGAUUUUGACUCUUCAGUUUUGACCUCACUUCUCCUGGAUCCAACCUGACAGGAGAUGACUGGAUUGCUGGGGUAGAGAAGGAAAGGCUGUCCUGGAAUUCUCGGGUGCCAA	0.344
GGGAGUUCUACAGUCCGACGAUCAGGGGAAGGUACCGAUAUCAUUGAGCUAUUUAAAGUUGCCAGUUUGGGCUCCAGUAAUGCUUUCUGGUGGGUAAAAUUCCACAUUCAGGCCACGAGAGCAUCUACAGUUUUGGAAUUCUCGGGUGCCAA	0.308
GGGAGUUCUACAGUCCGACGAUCUGACACGGUUGAGUGCUUCUGGGCCGGAAUCCUUAUGGGAAAUCACGUCAAUAAAUUUUAAACGCUCAGCGGUGUCCUGGAUGUGGUCUGUUUUUCAGGCCAUGCGUCUUUGGAAUUCUCGGGUGCCAA	0.227
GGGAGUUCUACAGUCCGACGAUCGAUUGAUUGAGCCUGCGAGGCCAAGGCUGCAGCAGGCUGUGAUUGCACCACUGCACUUCAGCUUGGGCAACAGAGCAAGACCCUGUCUCCGAAACAAAUAAAAAAUACUGUGGAAUUCUCGGGUGCCAA	0.354
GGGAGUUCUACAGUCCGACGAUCAGCCCUACAAUCUGACUCCUUCUAGGGACUCUGGGGCUAGCUUUGUGGGAGAGUCAGCCCUGCCCCUCCUCUCCCAUGUGACCCUGUCAUAGUUUGCAGUGUCCUAGGUAUGGAAUUCUCGGGUGCCAA	0.391
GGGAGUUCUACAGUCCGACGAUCGCAUGUCCCCUAAUGGGGACUGGCUCUCGCUUCACCCCCAUGGGGUUCCUCUAAUAAGGACCAGCCUUCUACCCUGGUGGAGACCAAAGGCCUCCUCCCGUUUCUCAUCAUGGAAUUCUCGGGUGCCAA	1.79
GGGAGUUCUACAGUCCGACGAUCCCACAGAAGGGCAGGGGUCUGCUUUGUGGCCACAGUAGGGUAAACCCCAGUUGCAUUUAUCGAGCCUUUCUGAUGGCCACAUAGCUCCUGGCAGUGGGUUGGAAGAUUUCUGGAAUUCUCGGGUGCCAA	2.88
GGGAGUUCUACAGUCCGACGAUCAGAAGUAUGUGUGCGUGUGUGUGUGCGUAUGCGUGUGAGACAGGGCCGCCGUGGGUGUGCGUGUGUGCGACUCAGAAUGUGGGUGGUGGCGCCCUCAGAGACCCUGGCAUUGGAAUUCUCGGGUGCCAA	3.06
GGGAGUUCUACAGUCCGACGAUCCUUUUCCUCGUUACCAGUGUGUGAUGUCACAACUGAAACUUGUGUUAGUAACGUCUAAGGCCAUGUUGCCUUUGUCUUUAGAGUAAUUCCUGGCUGUGCCUACCACUCCUUGGAAUUCUCGGGUGCCAA	0.238

Sample 3 — technique: protein-binding microarray; form: double-stranded DNA, one strand shown; sample: in vitro; tested at: not given; reading: higher = stronger binding
Target: Hepatocyte nuclear factor 3-beta, forkhead domain (FOXA2, Homo sapiens, UniProt Q9Y261, residues 142-269)
Setting: k-mer, scored over probes, only values ≥0.25
Target sequence (chain): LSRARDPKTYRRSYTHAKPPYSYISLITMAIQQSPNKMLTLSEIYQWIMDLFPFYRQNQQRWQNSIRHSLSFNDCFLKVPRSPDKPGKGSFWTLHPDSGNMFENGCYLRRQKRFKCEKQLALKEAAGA
Oligonucleotide	E-score
CTAATACA	0.303
GTGTATAA	0.284
ACTTTATG	0.281
ATTAGCAA	0.256
AATATAAT	0.278
AATATTCA	0.295
TACAGATA	0.318
ATTATACC	0.279
CACTTACA	0.311
CATACATA	0.347
ATATCATA	0.403
TCTATTAA	0.291
AATACTAG	0.255
ACATAGAC	0.266
GATTGTCA	0.256
ATATTTGA	0.272
ACTTGATA	0.262
AGTGTTAA	0.275
AATGATAG	0.263

Sample 4 — technique: protein binding microarray; form: double-stranded DNA, one strand shown; sample: in vitro; tested at: not given; baseline: not given; reading: higher = stronger binding
Target: Histone acetyltransferase KAT6A, winged helix 2, GST fusion (KAT6A, Homo sapiens, UniProt Q92794, residues 85-181)
Setting: 8-mer, flanks averaged, mean of 2 arrays, mostly near background
Target sequence (chain): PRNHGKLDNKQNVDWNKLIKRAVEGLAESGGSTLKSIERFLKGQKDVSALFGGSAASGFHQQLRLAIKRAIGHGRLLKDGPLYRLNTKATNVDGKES
Oligonucleotide	E-score
GCAAACAA	0.0188
GGAGGATA	0.0587
GCTGTTCA	0.107
GCTCATCC	-0.0264
CCTCCCGC	0.175
GATGCTCC	0.0405
CCCCGTTC	0.00777
CTTGGCTC	-0.111
CGAAAACC	0.11
CAGAGTAC	0.0416
AATCGTGC	0.0833
AGTGTACA	0.0008
ACCTCAAC	-0.148
GAGAAGAC	0.0638
CGACTCAC	0.00985
GGGTTCTA	-0.192
GGTGTAGA	-0.086
CCACTTGC	-0.0232
CTAATTCC	0.0561
AAGCTTAG	0.0885
CAATGTAG	-0.0119
ACGGGACC	-0.0886
GGGTTTGA	-0.0431
AGCCAGTC	-0.155
ATTGCGTA	-0.00167

Sample 5 — technique: aptamer microarray, sandwich; form: DNA with 2'F-ANA; sample: in vitro; tested at: 200 nM; together with: Cy3 exosite-II aptamer, 400 nM; reading: higher = stronger binding; oligonucleotide: GGTTGGTGTGGTTGG
Target: Prothrombin, mature alpha-thrombin (F2, Homo sapiens, UniProt P00734)
Setting: whole 15-mer aptamer, many near background
Modification	mean fluorescence intensity [a.u.]
2'F-ANA at 1 2 3 4 5 6 7 8 9 12 14	49.8
2'F-ANA at 2 3 5 7 8 12 13 15	167
2'F-ANA at 1 3 4 5 7 9 12 13	71.8
2'F-ANA at 5 7 8 9 10 12 13 14	53.6
2'F-ANA at 3 4 6 7 8 12 13 15	674
2'F-ANA at 1 3 4 5 8 11 12 13	128
2'F-ANA at 1 2 4 5 6 10 14	46
2'F-ANA at 2 4 6 7 8 9 10 11 13 15	68.4
2'F-ANA at 1 4 5 6 7 10 14	52
2'F-ANA at 1 2 4 5 6 7 8 9 11 14	45.4
2'F-ANA at 3 4 7 10 12 13 14	214
2'F-ANA at 2 3 4 5 6 10 12 13 14 15	55.2
2'F-ANA at 2 4 5 7 12 14	46.2
2'F-ANA at 4 6 8 10 11 14 15	53.7
2'F-ANA at 1 2 3 4 7 9 10 12 13 14 15	51.4
2'F-ANA at 3 5 6 7 8 9 10 11 12 13	60.7
2'F-ANA at 3 4 6 11 13	457
2'F-ANA at 6 7 9 13 14	158

For quick reference, copied from above (sample 5):
Modification	mean fluorescence intensity [a.u.]
2'F-ANA at 1 3 4 5 7 9 12 13	71.8
2'F-ANA at 5 7 8 9 10 12 13 14	53.6
2'F-ANA at 3 4 6 7 8 12 13 15	674
2'F-ANA at 1 3 4 5 8 11 12 13	128
2'F-ANA at 1 2 4 5 6 10 14	46
2'F-ANA at 2 4 6 7 8 9 10 11 13 15	68.4
2'F-ANA at 1 4 5 6 7 10 14	52
2'F-ANA at 1 2 4 5 6 7 8 9 11 14	45.4
2'F-ANA at 3 4 7 10 12 13 14	214
2'F-ANA at 2 3 4 5 6 10 12 13 14 15	55.2
2'F-ANA at 2 4 5 7 12 14	46.2
2'F-ANA at 4 6 8 10 11 14 15	53.7
2'F-ANA at 1 2 3 4 7 9 10 12 13 14 15	51.4
2'F-ANA at 3 5 6 7 8 9 10 11 12 13	60.7
2'F-ANA at 3 4 6 11 13	457
